Experimental data from different studies.
Parts stem from different laboratories: compare values within a part only. Several values in a cell are separate wells, animals, samples, runs or records.

Sample 1 — effect on: enzyme activity; action: inhibitor; tested at: 1 µM; endpoint: inhibition
SMILES: CO[C@@H]1[C@H](N(C)C(=O)c2ccccc2)C[C@H]2O[C@]1(C)n1c3ccccc3c3c4c(c5c6ccccc6n2c5c31)C(=O)NC4
target = Serine/threonine-protein kinase 16 (STK16, Homo sapiens, UniProt O75716); result = 69%
target = Ephrin type-A receptor 4 (EPHA4, Homo sapiens, UniProt P54764); result = 4%
target = Dual specificity mitogen-activated protein kinase kinase 4 (MAP2K4, Homo sapiens, UniProt P45985); result = 0%
target = Receptor tyrosine-protein kinase erbB-4 (ERBB4, Homo sapiens, UniProt Q15303); result = 16%
target = Mitogen-activated protein kinase kinase kinase 15 (MAP3K15, Homo sapiens, UniProt Q6ZN16); result = 3%

Sample 2 — effect on: binding; method: radioligand binding; tested at: 10 µM; endpoint: inhibition
Target: Alpha-1B adrenergic receptor (ADRA1B, Homo sapiens, UniProt P35368)
SMILES = O=C(Nc1cccnn1)N1CC(CC=Cc2cncc(Oc3ccc(C(F)(F)F)cn3)n2)C1; result = 0.27%
SMILES = COCCc1ccc(-c2c(C)nc3c(N4CCOCC4)ccnn23)cn1; result = -8.94%
SMILES = Cc1c(N2CCCC2)nc2ccc(Br)cc2c1C(=O)NC[C@H](CCC(=O)O)c1ccccc1Cl; result = -4.96%
SMILES = C[C@H](NC(=O)c1cnc2n1[C@](C)(Cc1ccc(C#N)cc1)C(=O)N2c1cc(Cl)c(F)c(Cl)c1)C(=O)NC1(c2ccccn2)CC1; result = 2.35%
SMILES = C[C@@H]1CN(c2cc(-c3nn(C)c4ccc(OC5(C)CC5)cc34)ncn2)C[C@H](C)O1; result = 3.72%
SMILES = O=C(Nc1cccnn1)N1CCC(=Cc2cccc(Oc3ccc(C(F)(F)F)cn3)c2)CC1; result = 0.4%
SMILES = Cc1nc(C2CCN(C(=O)c3ccc(OC(F)(F)F)cc3N)CC2)c2ncc(N3CCN(C)CC3)cc2n1; result = 20.2%

Sample 3 — Compound: Cc1nc2cc3nc(-c4cccs4)cnc3cc2n1C; effect on: enzyme activity; action: inhibitor; tested at: 0.5 µM; reference: control; endpoint: remaining activity
target = Serine/threonine-protein kinase Nek3 (NEK3, Homo sapiens, UniProt P51956); result = 108%
target = Mitogen-activated protein kinase 1 (MAPK1, Homo sapiens, UniProt P28482); result = 110%
target = Serine/threonine-protein kinase MRCK beta (CDC42BPB, Homo sapiens, UniProt Q9Y5S2); result = 100%
target = Serine/threonine-protein kinase PLK3 (PLK3, Homo sapiens, UniProt Q9H4B4); result = 95.6%
target = Hepatocyte growth factor receptor (MET, Homo sapiens, UniProt P08581); result = 111%
target = Tyrosine-protein kinase TXK (TXK, Homo sapiens, UniProt P42681); result = 102%
target = Ribosomal protein S6 kinase alpha-4 (RPS6KA4, Homo sapiens, UniProt O75676); result = 88.4%
target = Cyclin-dependent kinase 9, with cyclin K (CDK9, Homo sapiens, UniProt P50750); result = 110%
target = G protein-coupled receptor kinase 4 (GRK4, Homo sapiens, UniProt P32298); result = 104%
target = Calcium/calmodulin-dependent protein kinase type IV (CAMK4, Homo sapiens, UniProt Q16566); result = 94.7%
target = Dual specificity protein kinase CLK3 (CLK3, Homo sapiens, UniProt P49761); result = 114%
target = Vascular endothelial growth factor receptor 2 (KDR, Homo sapiens, UniProt P35968); result = 77.4%
target = cGMP-dependent protein kinase 2 (PRKG2, Homo sapiens, UniProt Q13237); result = 87.7%
target = Discoidin domain-containing receptor 2 (DDR2, Homo sapiens, UniProt Q16832); result = 108%
target = RAC-beta serine/threonine-protein kinase (AKT2, Homo sapiens, UniProt P31751); result = 91.5%
target = MAP/microtubule affinity-regulating kinase 4 (MARK4, Homo sapiens, UniProt Q96L34); result = 105%
target = Mitogen-activated protein kinase 14 (MAPK14, Homo sapiens, UniProt Q16539); result = 97.5%
target = Serine/threonine-protein kinase PAK 3 (PAK3, Homo sapiens, UniProt O75914); result = 98.8%
target = Dual specificity mitogen-activated protein kinase kinase 1 (MAP2K1, Homo sapiens, UniProt Q02750); result = 89.7%
target = Cyclin-dependent kinase 1, with cyclin A (CDK1, Homo sapiens, UniProt P06493); result = 102%
target = Serine/threonine-protein kinase MARK2 (MARK2, Homo sapiens, UniProt Q7KZI7); result = 81.4%
target = Calcium/calmodulin-dependent protein kinase type 1B (PNCK, Homo sapiens, UniProt Q6P2M8); result = 102%
target = Misshapen-like kinase 1 (MINK1, Homo sapiens, UniProt Q8N4C8); result = 98.9%
target = Rho-associated protein kinase 1 (ROCK1, Homo sapiens, UniProt Q13464); result = 97.8%
target = Dual specificity protein kinase CLK4 (CLK4, Homo sapiens, UniProt Q9HAZ1); result = 79.2%

Sample 4 — organism: Plasmodium berghei; action: inhibitor; cell line: Huh-7; strain: liver stage; tested at: 10 µM; time: 24 h; reference: untreated control; endpoint: infection rate
SMILES = Nc1nc(=O)c2nc(CNc3ccc(C(=O)N[C@@H](CCC(=O)O)C(=O)O)cc3)cnc2[nH]1; result = 113%
SMILES = NC(N)=Nc1nc(CSCC/C(N)=N/S(N)(=O)=O)cs1; result = 83%
SMILES = O=C1NCC2(CCN(CCc3ccccc3)CC2)O1; result = 88.4%
SMILES = Cc1cnc(NC(=O)C2=C(O)c3ccccc3S(=O)(=O)N2C)s1; result = 107%
SMILES = O=S(=O)(O)CCS; result = 100%
SMILES = C[C@@H]1O[C@@H]1P(=O)(O)O; result = 101%
SMILES = Cc1cccc(CN2CCN(C(c3ccccc3)c3ccc(Cl)cc3)CC2)c1 (stereo not shown); result = 89.2%
SMILES = C[C@](N)(Cc1ccc(O)cc1)C(=O)O; result = 96.1%

Sample 5 — cell line: mouse MPNST tumor cells; method: high-content nuclear imaging; refers to: cell number; tested at: 10 µM; time: 12 h; setting: mean of 2 replicates; reference: plate mean; direction: higher = more cells; endpoint: nuclei count
SMILES = CS(=O)(=O)c1cccc(CNc2nc(Nc3ccc4c(c3)CCC(=O)N4)ncc2C(F)(F)F)c1; result = -1.38 z-score
SMILES = N#Cc1ccc(-c2csc(NN=C3CCCC3)n2)cc1; result = 0.465 z-score
SMILES = COc1ccc(C2CC(c3ccccc3)=NN2c2ccc(S(N)(=O)=O)cc2)cc1 (stereo not shown); result = 0.903 z-score
SMILES = COc1cccc([C@@H](C)NCCCc2ccccc2Cl)c1; result = 0.0252 z-score
SMILES = O=C1CC2(CCCC2)CC(=O)N1CCCCN1CCN(c2ncccn2)CC1; result = -0.281 z-score and 0.317 z-score
SMILES = CCC(=O)NC1CCc2cccc(OC)c2C1 (stereo not shown); result = 0.0599 z-score
SMILES = O=C(/C=C/N1C[C@H]2C[C@@H]1CN2c1ccccn1)c1ccccc1O; result = -0.507 z-score
